{"data": "Results pooled from the literature", "note": "Parts stem from different laboratories: compare values within a part only.", "UniProt Q9UPZ9, sequence (whole entry, looked up)": "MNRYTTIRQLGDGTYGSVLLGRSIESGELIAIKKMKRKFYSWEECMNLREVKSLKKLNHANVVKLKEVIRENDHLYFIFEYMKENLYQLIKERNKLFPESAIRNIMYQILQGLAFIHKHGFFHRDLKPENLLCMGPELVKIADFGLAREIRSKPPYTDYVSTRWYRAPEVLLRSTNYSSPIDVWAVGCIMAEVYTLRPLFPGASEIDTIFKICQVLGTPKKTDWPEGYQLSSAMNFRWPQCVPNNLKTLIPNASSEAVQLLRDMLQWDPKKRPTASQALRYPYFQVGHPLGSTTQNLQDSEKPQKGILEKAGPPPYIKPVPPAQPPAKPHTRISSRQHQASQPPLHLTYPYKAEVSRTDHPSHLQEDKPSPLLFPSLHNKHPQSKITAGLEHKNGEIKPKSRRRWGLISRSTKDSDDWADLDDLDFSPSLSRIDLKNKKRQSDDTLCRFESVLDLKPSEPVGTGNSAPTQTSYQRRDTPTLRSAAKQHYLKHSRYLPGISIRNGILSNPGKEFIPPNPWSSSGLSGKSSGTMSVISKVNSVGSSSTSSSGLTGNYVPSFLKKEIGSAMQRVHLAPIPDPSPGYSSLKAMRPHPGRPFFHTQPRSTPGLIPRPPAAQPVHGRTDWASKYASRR", "UniProt O14936, sequence (whole entry, looked up)": "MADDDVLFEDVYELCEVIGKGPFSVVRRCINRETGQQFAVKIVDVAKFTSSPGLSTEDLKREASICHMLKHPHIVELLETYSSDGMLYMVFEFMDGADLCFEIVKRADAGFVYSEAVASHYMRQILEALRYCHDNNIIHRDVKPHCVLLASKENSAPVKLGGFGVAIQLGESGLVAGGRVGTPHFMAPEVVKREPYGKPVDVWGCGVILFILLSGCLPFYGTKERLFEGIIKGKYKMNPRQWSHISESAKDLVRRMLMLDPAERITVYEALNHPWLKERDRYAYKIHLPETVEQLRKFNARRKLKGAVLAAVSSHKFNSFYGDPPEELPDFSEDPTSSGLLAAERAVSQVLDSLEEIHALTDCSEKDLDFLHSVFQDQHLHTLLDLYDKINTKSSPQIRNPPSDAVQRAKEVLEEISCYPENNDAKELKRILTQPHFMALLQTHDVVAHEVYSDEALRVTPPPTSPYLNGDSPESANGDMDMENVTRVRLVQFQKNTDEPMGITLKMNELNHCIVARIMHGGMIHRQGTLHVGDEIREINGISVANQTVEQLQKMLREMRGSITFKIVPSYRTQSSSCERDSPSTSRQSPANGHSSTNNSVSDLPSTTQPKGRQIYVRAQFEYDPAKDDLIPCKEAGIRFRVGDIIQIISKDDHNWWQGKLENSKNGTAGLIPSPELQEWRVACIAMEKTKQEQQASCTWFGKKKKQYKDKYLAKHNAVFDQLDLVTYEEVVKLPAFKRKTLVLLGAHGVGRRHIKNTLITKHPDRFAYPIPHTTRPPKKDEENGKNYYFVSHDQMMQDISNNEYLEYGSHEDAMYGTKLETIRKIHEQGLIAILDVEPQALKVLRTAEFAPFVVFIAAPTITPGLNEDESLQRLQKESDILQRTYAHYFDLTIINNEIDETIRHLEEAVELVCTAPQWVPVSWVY"}
{"data": "Block 1", "target": "DNA polymerase theta, helicase domain (POLQ, Homo sapiens, UniProt O75417)", "mode": "inhibitor", "tested at": "concentration not given", "notes": "absolute value", "with": "with minus without ssDNA", "UniProt O75417, sequence (whole entry, looked up)": "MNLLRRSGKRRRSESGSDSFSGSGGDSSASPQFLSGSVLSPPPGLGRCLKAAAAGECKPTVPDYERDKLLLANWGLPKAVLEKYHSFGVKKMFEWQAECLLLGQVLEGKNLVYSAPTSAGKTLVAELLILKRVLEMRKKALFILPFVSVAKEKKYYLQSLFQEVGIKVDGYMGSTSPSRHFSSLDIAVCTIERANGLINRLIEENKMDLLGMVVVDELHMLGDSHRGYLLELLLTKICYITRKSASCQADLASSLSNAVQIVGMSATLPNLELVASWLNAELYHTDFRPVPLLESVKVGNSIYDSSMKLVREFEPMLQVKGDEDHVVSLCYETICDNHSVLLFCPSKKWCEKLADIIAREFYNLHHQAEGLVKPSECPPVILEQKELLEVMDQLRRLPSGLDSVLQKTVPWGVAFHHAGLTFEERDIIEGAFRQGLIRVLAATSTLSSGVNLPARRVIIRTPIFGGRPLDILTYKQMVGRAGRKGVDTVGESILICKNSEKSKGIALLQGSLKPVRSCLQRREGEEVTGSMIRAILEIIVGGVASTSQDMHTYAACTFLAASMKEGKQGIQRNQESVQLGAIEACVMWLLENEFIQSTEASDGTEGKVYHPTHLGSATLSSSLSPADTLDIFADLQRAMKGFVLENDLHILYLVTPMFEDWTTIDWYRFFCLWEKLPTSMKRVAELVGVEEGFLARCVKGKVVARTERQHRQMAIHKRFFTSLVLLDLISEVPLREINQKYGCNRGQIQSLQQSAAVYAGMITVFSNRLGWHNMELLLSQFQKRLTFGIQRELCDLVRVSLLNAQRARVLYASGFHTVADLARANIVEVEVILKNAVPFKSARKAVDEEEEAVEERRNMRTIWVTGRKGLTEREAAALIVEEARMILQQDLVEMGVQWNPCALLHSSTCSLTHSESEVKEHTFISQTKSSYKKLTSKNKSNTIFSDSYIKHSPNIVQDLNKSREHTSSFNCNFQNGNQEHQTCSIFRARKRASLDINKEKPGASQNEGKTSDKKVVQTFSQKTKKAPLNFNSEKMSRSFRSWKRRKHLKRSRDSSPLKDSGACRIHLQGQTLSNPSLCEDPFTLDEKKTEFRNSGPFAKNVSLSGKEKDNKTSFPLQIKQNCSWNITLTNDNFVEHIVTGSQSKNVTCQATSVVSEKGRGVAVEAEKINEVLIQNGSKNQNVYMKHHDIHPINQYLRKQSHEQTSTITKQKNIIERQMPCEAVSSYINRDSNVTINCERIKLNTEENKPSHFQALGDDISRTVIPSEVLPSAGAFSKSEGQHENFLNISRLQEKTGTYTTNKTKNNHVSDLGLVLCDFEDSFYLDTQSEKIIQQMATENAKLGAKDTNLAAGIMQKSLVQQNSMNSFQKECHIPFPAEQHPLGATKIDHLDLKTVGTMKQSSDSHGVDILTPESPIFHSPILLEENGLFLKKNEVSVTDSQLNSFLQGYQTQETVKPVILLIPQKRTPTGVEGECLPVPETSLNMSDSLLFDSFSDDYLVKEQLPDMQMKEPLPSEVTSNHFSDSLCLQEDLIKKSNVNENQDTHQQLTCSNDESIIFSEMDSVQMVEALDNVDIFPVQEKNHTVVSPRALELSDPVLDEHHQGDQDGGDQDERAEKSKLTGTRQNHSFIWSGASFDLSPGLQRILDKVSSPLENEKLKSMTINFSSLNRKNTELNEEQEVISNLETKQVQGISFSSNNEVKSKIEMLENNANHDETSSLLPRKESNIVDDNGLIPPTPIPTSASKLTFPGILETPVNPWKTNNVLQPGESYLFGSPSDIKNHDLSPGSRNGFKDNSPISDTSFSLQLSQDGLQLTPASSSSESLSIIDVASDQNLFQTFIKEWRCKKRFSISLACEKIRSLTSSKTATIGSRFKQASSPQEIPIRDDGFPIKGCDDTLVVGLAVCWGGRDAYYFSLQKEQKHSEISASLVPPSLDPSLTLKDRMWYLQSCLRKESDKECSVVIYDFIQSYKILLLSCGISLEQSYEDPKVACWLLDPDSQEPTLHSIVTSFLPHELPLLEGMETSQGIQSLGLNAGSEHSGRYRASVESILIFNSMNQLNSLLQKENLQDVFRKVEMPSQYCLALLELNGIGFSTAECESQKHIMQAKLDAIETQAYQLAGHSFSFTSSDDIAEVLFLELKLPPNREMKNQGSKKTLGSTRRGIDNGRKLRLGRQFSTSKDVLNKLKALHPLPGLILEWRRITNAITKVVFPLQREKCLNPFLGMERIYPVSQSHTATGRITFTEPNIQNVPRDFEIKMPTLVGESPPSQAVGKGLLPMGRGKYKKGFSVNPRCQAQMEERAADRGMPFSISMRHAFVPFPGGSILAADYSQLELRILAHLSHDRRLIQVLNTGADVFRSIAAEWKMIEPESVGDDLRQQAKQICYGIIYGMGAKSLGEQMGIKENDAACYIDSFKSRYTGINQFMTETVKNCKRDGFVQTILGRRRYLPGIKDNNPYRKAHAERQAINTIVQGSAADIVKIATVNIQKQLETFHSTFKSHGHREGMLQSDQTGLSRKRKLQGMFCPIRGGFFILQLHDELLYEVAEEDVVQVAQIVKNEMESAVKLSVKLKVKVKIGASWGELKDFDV"}
{"SMILES": "O=C(Nc1cc2cc[nH]c2cn1)c1ccccc1", "difference in remaining activity [%]": 3.95}
{"SMILES": "Cc1ccc(C(=O)c2cc(O)c(O)c([N+](=O)[O-])c2)cc1", "difference in remaining activity [%]": 8.38}
{"SMILES": "O=C(O)/C(=C/c1c(C(=O)O)[nH]c2cc(Cl)cc(Cl)c12)c1ccccc1", "difference in remaining activity [%]": 67.5}
{"SMILES": "O=C(CSc1ncc(S(=O)(=O)c2ccc(Br)cc2)c(=O)[nH]1)NCc1ccc(Cl)cc1", "difference in remaining activity [%]": 11.9}
{"SMILES": "COc1cccc2c1C(=O)c1c(O)c3c(c(O)c1C2=O)C[C@@](O)(C(C)=O)C[C@@H]3O[C@H]1C[C@H](N)[C@H](O)[C@H](C)O1", "difference in remaining activity [%]": 47.7}
{"SMILES": "CCc1ccc(/C=C2/SC(=S)NC2=O)cc1", "difference in remaining activity [%]": 1.61}
{"SMILES": "CCC(C)(Oc1ccc(C2(c3ccc(OC(C)(CC)C(=O)O)cc3)CCCCC2)cc1)C(=O)O (stereo not drawn)", "difference in remaining activity [%]": 61.5}
{"SMILES": "O=C(O)[C@]1(Cc2cccc(Nc3nccs3)n2)CC[C@@H](Oc2cccc(Cl)c2F)CC1", "difference in remaining activity [%]": 4.53}
{"SMILES": "CC(C)(C)c1ccc(S(=O)(=O)c2cnc(SCC(=O)Nc3ccc4c(c3)OCCO4)[nH]c2=O)cc1", "difference in remaining activity [%]": 7.66}
{"data": "Block 2", "Structure (SMILES)": "O=C1NC(=O)C(c2cn(-c3ccccc3)nc2-c2ccc(F)cc2)N1 (stereo not drawn)", "mode": "inhibitor", "tested at": "5 µM"}
{"target": "ITK (Homo sapiens, UniProt Q08881)", "assay": "cell-based kinome screen", "test system": "human cells", "how to read": "reference: untreated control", "log2 fold change": -0.723}
{"target": "ACVR2B (Homo sapiens, UniProt Q13705)", "assay": "cell-based kinome profiling", "test system": "human cells", "how to read": "reference: vehicle control", "log2 fold change": -0.342}
{"target": "TAOK3 (Homo sapiens, UniProt Q9H2K8)", "assay": "kinase-CDC37 interaction", "test system": "human cells", "how to read": "reference: vehicle", "log2 fold change": -0.096}
{"target": "FLT4 (Homo sapiens, UniProt P35916)", "assay": "cell-based translocation", "test system": "human cells", "how to read": "reference: vehicle", "log2 fold change": -0.673}
{"target": "EGFR (Homo sapiens, UniProt P00533, T790M)", "assay": "kinase–CDC37 interaction", "setting": "EGFR T790M oncogenic mutant", "how to read": "reference: vehicle control", "log2 fold change": -0.335}
{"target": "MOK (Homo sapiens, UniProt Q9UQ07)", "assay": "kinase–CDC37 interaction", "setting": "kinome plate 1@C06", "how to read": "reference: vehicle", "log2 fold change": -0.126}
{"target": "STK32C (Homo sapiens, UniProt Q86UX6)", "assay": "kinase activity", "setting": "cell-based kinome screen", "how to read": "reference: vehicle", "log2 fold change": 0.22}
{"target": "NUAK2 (Homo sapiens, UniProt Q9H093)", "assay": "cell-based kinome screen", "test system": "human cells", "how to read": "reference: untreated control", "log2 fold change": -0.499}
{"target": "EIF2AK2 (Homo sapiens, UniProt P19525)", "assay": "kinase–CDC37 interaction", "setting": "kinome plate 1@G07", "how to read": "reference: vehicle control", "log2 fold change": -0.368}
{"data": "Block 3", "SMILES": "C=CCc1ccc(O)c(-c2cc(CC=C)ccc2O)c1", "target": "Anoctamin-1 (ANO1, Homo sapiens, UniProt Q5XXA6, del476-501)", "observed": "chloride current", "technique": "whole-cell patch clamp", "UniProt Q5XXA6, sequence (whole entry, unmodified, looked up)": "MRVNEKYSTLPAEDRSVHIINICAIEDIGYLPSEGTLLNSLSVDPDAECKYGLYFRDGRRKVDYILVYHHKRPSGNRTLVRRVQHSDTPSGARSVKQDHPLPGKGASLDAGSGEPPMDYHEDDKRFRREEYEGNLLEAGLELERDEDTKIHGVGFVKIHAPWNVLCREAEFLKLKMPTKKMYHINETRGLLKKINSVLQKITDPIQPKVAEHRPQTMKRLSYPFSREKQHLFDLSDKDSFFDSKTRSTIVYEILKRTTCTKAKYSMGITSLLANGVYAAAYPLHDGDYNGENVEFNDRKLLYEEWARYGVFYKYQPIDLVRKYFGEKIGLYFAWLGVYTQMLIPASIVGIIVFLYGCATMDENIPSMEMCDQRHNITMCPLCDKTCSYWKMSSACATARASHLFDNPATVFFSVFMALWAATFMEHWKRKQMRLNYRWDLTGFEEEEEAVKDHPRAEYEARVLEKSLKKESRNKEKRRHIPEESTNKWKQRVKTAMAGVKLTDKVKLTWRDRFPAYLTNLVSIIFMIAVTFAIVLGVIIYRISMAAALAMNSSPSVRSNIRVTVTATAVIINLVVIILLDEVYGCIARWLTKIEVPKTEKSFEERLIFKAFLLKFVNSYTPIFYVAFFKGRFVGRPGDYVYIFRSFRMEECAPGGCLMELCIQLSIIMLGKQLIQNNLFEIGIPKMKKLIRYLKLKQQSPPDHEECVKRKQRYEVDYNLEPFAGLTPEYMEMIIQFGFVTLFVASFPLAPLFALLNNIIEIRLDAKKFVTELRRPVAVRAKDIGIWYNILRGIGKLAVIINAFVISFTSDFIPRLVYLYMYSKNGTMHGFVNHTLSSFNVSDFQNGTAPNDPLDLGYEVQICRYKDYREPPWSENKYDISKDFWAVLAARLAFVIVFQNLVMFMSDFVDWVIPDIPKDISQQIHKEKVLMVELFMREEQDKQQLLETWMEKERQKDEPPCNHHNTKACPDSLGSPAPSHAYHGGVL"}
{"setting": "10 µM, 60 mV, 300 nM free Ca2+", "normalised current": 0.266}
{"setting": "10 µM, -40 mV, 300 nM free Ca2+", "normalised current": -0.0529}
{"setting": "1 µM, -20 mV, 300 nM free Ca2+", "normalised current": -0.0464}
{"setting": "3 µM, -60 mV, 300 nM free Ca2+", "normalised current": -0.0871}
{"setting": "30 µM, 40 mV, 300 nM free Ca2+", "normalised current": 0.073}
{"setting": "100 µM, 40 mV, 300 nM free Ca2+, with: honokiol and magnolol 3 µM", "normalised current": 0.021}
{"setting": "100 µM, -40 mV, 300 nM free Ca2+, with: honokiol and magnolol 3 µM", "normalised current": -0.0084}
{"setting": "100 µM, -60 mV, 300 nM free Ca2+, with: honokiol and magnolol 3 µM", "normalised current": -0.0128}
{"setting": "10 µM, 0 mV, 300 nM free Ca2+", "normalised current": -0.000189}
{"setting": "100 µM, 100 mV, 300 nM free Ca2+", "normalised current": 0.286}
{"setting": "30 µM, -40 mV, 300 nM free Ca2+, with: honokiol and magnolol 3 µM", "normalised current": -0.0161}
{"setting": "30 µM, 40 mV, 300 nM free Ca2+, with: honokiol and magnolol 3 µM", "normalised current": 0.0474}
{"setting": "30 µM, 60 mV, 300 nM free Ca2+", "normalised current": 0.154}
{"setting": "10 µM, 60 mV, 300 nM free Ca2+, with: honokiol and magnolol 3 µM", "normalised current": 0.24}
{"setting": "30 µM, -60 mV, 300 nM free Ca2+", "normalised current": -0.0371}
{"setting": "30 µM, -60 mV, 300 nM free Ca2+, with: honokiol and magnolol 3 µM", "normalised current": -0.0201}
{"data": "Block 4", "SMILES": "O=C(NCc1ncc(C(F)(F)F)cc1Cl)c1ccc2c(c1)C1(CCS(=O)(=O)CC1)[C@H](C1CC1)N2S(=O)(=O)c1ccc(F)cc1", "observed": "cell-free assay", "technique": "competition with immobilised ligand", "tested at": "1 µM"}
{"target": "MKNK2 (Homo sapiens, UniProt Q9HBH9)", "remaining binding [%]": 83}
{"target": "ERBB4 (Homo sapiens, UniProt Q15303)", "remaining binding [%]": 70}
{"target": "MAPK14 (Homo sapiens, UniProt Q16539)", "remaining binding [%]": 100}
{"target": "SRPK2 (Homo sapiens, UniProt P78362)", "remaining binding [%]": 91}
{"target": "RIOK1 (Homo sapiens, UniProt Q9BRS2)", "remaining binding [%]": 100}
{"target": "COQ8B (Homo sapiens, UniProt Q96D53)", "remaining binding [%]": 83}
{"target": "TBK1 (Homo sapiens, UniProt Q9UHD2)", "remaining binding [%]": 80}
{"target": "CDK3 (Homo sapiens, UniProt Q00526)", "remaining binding [%]": 100}
{"target": "TAOK2 (Homo sapiens, UniProt Q9UL54)", "remaining binding [%]": 81}
{"target": "WNK4 (Homo sapiens, UniProt Q96J92)", "remaining binding [%]": 91}
{"target": "PIK3CA (Homo sapiens, UniProt P42336, E545K)", "remaining binding [%]": 84}
{"target": "PRKCI (Homo sapiens, UniProt P41743)", "remaining binding [%]": 81}
{"target": "ZAP70 (Homo sapiens, UniProt P43403)", "remaining binding [%]": 84}
{"target": "EPHB1 (Homo sapiens, UniProt P54762)", "remaining binding [%]": 100}
{"target": "EGFR (Homo sapiens, UniProt P00533, L858R/T790M)", "remaining binding [%]": 95}
{"target": "CILK1 (Homo sapiens, UniProt Q9UPZ9)", "remaining binding [%]": 100}
{"target": "MAPK4 (Homo sapiens, UniProt P31152)", "remaining binding [%]": 91}
{"target": "VRK2 (Homo sapiens, UniProt Q86Y07)", "remaining binding [%]": 95}
{"target": "CLK4 (Homo sapiens, UniProt Q9HAZ1)", "remaining binding [%]": 0}
{"target": "CASK (Homo sapiens, UniProt O14936)", "remaining binding [%]": 75}
{"note": "Some of these lines once more (block 4):"}
{"target": "COQ8B (Homo sapiens, UniProt Q96D53)", "remaining binding [%]": 83}
{"target": "TBK1 (Homo sapiens, UniProt Q9UHD2)", "remaining binding [%]": 80}
{"target": "CDK3 (Homo sapiens, UniProt Q00526)", "remaining binding [%]": 100}
{"target": "TAOK2 (Homo sapiens, UniProt Q9UL54)", "remaining binding [%]": 81}
{"target": "WNK4 (Homo sapiens, UniProt Q96J92)", "remaining binding [%]": 91}
{"target": "PIK3CA (Homo sapiens, UniProt P42336, E545K)", "remaining binding [%]": 84}
{"target": "PRKCI (Homo sapiens, UniProt P41743)", "remaining binding [%]": 81}
